Results collected from several papers.
Numbered parts are unrelated; each lists some results of a single study.
UniProt Q9UIK4, sequence (whole entry, looked up): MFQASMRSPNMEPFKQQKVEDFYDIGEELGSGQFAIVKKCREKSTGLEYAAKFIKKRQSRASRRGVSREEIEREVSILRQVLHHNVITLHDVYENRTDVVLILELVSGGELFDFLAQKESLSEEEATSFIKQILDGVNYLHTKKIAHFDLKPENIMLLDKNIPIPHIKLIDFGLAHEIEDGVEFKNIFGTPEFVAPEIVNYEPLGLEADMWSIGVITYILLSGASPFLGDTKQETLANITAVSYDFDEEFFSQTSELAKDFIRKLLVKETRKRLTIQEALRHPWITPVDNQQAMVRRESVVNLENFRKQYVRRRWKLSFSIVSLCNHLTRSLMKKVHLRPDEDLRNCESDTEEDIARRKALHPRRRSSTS
UniProt O14920, sequence (whole entry, looked up): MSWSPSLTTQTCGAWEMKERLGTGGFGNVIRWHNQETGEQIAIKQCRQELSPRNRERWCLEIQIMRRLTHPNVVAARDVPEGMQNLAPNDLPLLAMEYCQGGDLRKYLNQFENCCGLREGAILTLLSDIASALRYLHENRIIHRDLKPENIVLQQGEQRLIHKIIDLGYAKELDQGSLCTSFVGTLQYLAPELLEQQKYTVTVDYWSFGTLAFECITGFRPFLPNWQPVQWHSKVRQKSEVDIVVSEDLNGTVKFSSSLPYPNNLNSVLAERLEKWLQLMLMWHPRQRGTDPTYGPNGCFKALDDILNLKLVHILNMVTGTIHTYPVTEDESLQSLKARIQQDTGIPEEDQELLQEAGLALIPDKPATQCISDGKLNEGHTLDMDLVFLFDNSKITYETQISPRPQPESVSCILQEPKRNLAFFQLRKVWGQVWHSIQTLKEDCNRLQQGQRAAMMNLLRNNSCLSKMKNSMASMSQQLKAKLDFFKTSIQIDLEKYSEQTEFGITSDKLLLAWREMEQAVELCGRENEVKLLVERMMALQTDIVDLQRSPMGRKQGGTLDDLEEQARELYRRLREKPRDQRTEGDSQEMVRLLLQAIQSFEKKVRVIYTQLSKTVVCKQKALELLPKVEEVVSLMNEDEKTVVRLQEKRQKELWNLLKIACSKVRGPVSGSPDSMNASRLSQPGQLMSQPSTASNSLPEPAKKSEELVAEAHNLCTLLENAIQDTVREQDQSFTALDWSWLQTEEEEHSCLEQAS
UniProt P11802, sequence (whole entry, looked up): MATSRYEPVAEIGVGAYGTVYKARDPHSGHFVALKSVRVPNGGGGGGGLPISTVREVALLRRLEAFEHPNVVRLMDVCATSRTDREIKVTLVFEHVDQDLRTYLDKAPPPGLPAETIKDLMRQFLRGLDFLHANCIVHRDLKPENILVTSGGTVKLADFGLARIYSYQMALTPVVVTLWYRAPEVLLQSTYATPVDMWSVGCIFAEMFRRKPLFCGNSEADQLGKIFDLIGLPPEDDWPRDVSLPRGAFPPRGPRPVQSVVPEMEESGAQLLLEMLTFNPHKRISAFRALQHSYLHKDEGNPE
UniProt O00762, sequence (whole entry, looked up): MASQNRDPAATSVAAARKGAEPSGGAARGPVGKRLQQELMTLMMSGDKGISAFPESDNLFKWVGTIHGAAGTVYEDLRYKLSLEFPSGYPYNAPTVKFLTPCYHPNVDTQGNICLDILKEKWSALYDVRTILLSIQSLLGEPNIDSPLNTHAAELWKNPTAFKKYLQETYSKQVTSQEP
UniProt P51668, sequence (whole entry, looked up): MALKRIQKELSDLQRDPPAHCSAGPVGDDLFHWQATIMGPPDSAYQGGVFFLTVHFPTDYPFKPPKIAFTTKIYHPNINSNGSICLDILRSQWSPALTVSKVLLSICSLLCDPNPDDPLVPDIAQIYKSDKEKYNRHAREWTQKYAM
UniProt Q07912, sequence (whole entry, looked up): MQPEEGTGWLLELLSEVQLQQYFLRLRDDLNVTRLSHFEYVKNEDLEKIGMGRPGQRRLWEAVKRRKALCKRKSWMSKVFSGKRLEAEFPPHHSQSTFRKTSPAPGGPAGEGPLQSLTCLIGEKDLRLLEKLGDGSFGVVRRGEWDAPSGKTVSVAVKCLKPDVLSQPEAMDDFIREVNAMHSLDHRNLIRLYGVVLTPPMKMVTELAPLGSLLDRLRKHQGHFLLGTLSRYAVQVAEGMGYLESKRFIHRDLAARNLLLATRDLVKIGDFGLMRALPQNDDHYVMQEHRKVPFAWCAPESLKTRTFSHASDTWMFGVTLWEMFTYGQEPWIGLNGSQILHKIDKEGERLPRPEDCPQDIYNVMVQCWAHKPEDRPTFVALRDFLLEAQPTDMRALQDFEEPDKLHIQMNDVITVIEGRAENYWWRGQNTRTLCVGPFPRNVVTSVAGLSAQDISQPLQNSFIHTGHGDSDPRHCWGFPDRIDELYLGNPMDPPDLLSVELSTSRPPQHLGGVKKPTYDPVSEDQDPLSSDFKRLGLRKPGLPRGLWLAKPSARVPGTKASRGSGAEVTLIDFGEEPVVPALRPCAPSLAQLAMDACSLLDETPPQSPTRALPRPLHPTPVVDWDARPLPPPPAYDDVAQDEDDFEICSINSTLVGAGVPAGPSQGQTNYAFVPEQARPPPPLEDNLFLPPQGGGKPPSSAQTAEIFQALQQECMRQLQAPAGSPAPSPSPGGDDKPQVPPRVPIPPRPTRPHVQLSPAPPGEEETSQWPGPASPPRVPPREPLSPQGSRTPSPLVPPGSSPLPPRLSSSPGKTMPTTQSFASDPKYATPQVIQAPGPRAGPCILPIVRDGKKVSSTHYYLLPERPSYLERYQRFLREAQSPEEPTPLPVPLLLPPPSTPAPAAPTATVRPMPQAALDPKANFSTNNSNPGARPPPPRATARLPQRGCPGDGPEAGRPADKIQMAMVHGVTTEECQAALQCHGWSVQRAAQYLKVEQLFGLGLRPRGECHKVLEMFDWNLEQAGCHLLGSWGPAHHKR
UniProt Q9C0C9, sequence (whole entry, looked up): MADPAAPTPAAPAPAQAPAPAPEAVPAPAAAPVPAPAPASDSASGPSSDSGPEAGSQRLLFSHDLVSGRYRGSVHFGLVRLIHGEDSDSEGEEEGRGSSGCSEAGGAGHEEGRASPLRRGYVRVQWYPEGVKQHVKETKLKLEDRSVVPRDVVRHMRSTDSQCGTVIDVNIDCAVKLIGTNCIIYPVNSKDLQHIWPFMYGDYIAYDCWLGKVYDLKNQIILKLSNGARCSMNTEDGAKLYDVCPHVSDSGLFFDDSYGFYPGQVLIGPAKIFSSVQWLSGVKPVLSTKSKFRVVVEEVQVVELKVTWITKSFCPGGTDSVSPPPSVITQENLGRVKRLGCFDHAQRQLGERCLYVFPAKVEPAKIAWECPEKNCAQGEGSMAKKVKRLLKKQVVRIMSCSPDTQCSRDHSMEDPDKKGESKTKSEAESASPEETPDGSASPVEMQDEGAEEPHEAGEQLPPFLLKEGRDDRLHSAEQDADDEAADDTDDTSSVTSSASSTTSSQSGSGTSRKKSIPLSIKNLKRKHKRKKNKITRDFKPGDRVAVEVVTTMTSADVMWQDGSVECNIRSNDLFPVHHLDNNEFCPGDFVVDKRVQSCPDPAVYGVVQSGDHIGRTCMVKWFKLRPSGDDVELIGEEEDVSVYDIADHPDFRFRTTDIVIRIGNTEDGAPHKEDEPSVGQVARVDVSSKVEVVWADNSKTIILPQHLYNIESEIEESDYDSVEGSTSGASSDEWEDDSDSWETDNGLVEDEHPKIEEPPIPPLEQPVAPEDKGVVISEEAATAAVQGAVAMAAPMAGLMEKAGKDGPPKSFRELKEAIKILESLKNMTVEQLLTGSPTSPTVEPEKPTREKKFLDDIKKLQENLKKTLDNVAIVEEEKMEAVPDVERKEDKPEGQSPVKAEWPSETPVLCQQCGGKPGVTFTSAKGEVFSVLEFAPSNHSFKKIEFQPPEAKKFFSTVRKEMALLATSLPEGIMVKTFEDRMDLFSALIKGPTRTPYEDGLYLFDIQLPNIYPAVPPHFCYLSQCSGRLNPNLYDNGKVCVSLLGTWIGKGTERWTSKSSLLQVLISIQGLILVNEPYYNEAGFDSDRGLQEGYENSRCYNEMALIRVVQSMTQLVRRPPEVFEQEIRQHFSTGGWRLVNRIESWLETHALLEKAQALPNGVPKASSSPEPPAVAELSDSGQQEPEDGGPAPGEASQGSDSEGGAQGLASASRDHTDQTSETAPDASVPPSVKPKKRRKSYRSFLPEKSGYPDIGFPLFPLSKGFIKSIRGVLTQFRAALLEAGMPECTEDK
UniProt P63146, sequence (whole entry, looked up): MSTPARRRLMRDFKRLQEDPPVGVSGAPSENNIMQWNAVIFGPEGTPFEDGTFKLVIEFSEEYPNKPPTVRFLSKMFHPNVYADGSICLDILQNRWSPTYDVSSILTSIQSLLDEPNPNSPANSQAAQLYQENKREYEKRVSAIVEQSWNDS

Set 1
Target: Centromere-binding protein 1, full length, His-tagged (CBF1, Saccharomyces cerevisiae, UniProt P17106, residues 1-351)
UniProt P17106, sequence (whole entry, looked up): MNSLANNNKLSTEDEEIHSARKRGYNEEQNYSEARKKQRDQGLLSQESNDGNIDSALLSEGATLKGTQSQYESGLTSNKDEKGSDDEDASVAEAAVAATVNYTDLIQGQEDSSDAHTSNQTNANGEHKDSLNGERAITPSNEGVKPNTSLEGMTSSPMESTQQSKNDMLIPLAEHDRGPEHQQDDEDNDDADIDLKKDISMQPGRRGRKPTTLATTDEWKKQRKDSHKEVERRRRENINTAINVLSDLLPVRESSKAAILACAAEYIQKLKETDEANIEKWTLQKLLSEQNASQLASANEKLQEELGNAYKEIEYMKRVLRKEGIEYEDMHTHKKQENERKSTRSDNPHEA
Technique: competition protein-binding microarray
Molecule type: double-stranded DNA, one strand shown
Sample: in vitro
Tested at: 2 µM
Setting: whole 60-bp probe, lowest competitor level
Added: Pho4 competitor, 0.05 µM
Reading: higher = stronger binding
Oligonucleotide	fluorescence intensity [a.u.]
ACTTGATTTGCGGAGAACGTGATGGCGACGCACTCGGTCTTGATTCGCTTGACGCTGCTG	284
ACCACTCAGGTCCAGAACGTGACTCGTCTTTGCACCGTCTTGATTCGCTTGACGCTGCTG	644
GGCGAGATAAAGCAGAACGTGAAGCTCAGTTAAGTAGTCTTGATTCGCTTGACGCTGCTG	88.2
GACAATTTGGATTTACACATGGTTGAGATCCTGCAGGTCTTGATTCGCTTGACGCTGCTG	88.3
CATACCCAACCTTGTCACCGTACTTAAGATATTTGTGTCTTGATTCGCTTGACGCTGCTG	63.4
CAGGGCATAAAGAGGCACATGCGGCGTTTGTAGCCGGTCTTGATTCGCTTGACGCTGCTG	81.7
TCGACGGCGAAGAAGCACATGCCTTCACCGTCCGCAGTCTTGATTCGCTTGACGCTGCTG	77.1
AAGAACATTGATAGTCCCGTGACGGCCCTAAGTGCGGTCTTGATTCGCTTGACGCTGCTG	1300

Set 2
SMILES: CCC(=O)N[C@@H]1CC[C@H](C(=O)N(C)c2ccc(-c3nc4ccccc4o3)cc2)C1
Effect on: cell-free assay
Technique: competition with immobilised ligand
Tested at: 1 µM
target	remaining binding
CAMK2G (Homo sapiens, UniProt Q13555)	100%
TNK2 (Homo sapiens, UniProt Q07912)	100%
KIT (Homo sapiens, UniProt P10721, D816H)	100%
EPHA7 (Homo sapiens, UniProt Q15375)	100%

Set 3
Target: Cellular tumor antigen p53, full length (TP53, Homo sapiens, UniProt P04637, residues 1-393)
Technique: protein-binding microarray
Molecule type: hairpin DNA
Sample: in vitro
Tested at: not given
Setting: whole hairpin DNA, median over replicate spots
Relative to: not given
Reading: higher = stronger binding
Oligonucleotide	median fluorescence
CGGACATGCCCGGGCATGTCTCCTGACATGCCCGGGCATGTCCGACACTC	23100 a.u.
CCACACGCGGTGGCATGCCTTCCTAGGCATGCCACCGCGTGTGGACACTC (5mC at 8)	6920 a.u.
CCACACGTGGTGGCTTGCCTTCCTAGGCAAGCCACCACGTGTGGACACTC	5060 a.u.
CGGACATGCACGGGCATGTCTCCTGACATGCCCGTGCATGTCCGACACTC	14800 a.u.
CCACACGTGGCGGCATGCCTTCCTAGGCATGCCGCCACGTGTGGACACTC (5mC at 11 33)	6660 a.u.
CGGACATGCCCGGGGATGTCTCCTGACATCCCCGGGCATGTCCGACACTC (5mC at 30)	7910 a.u.
CCACCGGTGGTGGCATGCCTTCCTAGGCATGCCACCACCGGTGGACACTC (5mC at 39)	6860 a.u.
CGGACATGCGCGGGCATGTCTCCTGACATGCCCGCGCATGTCCGACACTC (5mC at 9)	15400 a.u.

Set 4
Compound: COc1cccc(-c2cc(=O)c3ccccc3o2)c1N
Effect on: enzyme activity
Mode: inhibitor
Tested at: 0.5 µM
Relative to: control
target	remaining activity [%]
CAMK2D (Homo sapiens, UniProt Q13557)	91.5
PRKCA (Homo sapiens, UniProt P17252)	102
STK11 (Homo sapiens, UniProt Q15831)	101
IKBKB (Homo sapiens, UniProt O14920)	92.5
TGFBR2 (Homo sapiens, UniProt P37173)	115
NEK2 (Homo sapiens, UniProt P51955)	86.1
GRK3 (Homo sapiens, UniProt P35626)	94.7
cGMP-dependent protein kinase 1, isoform beta (PRKG1, Homo sapiens, UniProt Q13976)	108
IKBKE (Homo sapiens, UniProt Q14164)	95.1
MAP3K3 (Homo sapiens, UniProt Q99759)	83
DAPK2 (Homo sapiens, UniProt Q9UIK4)	107
CAMKK2 (Homo sapiens, UniProt Q96RR4)	92.5
MAPK9 (Homo sapiens, UniProt P45984)	89.8
Cyclin-dependent kinase 5, with p25 (CDK5, Homo sapiens, UniProt Q00535)	87.5
PRKACA (Homo sapiens, UniProt P17612)	87.7
Tyrosine-protein kinase Lyn, isoform B (LYN, Homo sapiens, UniProt P07948)	98.7
OXSR1 (Homo sapiens, UniProt O95747)	91.2
Cyclin-dependent kinase 4, with cyclin D1 (CDK4, Homo sapiens, UniProt P11802)	100
Protein kinase C beta type, isoform beta-I (PRKCB, Homo sapiens, UniProt P05771)	98.5
TGFBR1 (Homo sapiens, UniProt P36897)	94.7
STK10 (Homo sapiens, UniProt O94804)	90.4
CHEK2 (Homo sapiens, UniProt O96017)	98.8
STK39 (Homo sapiens, UniProt Q9UEW8)	86.8
DAPK1 (Homo sapiens, UniProt P53355)	90.9

Set 5
Molecule: B1 (MID1 RING domain)
Technique: yeast two-hybrid
Sample: yeast
Setting: mostly zero background
Relative to: not given
Reading: higher = stronger interaction
B1: MID1 RING domain (UniProt O15344); chain METLESELTCPICLELFEDPLLLPCAHSLCFNCAHRILVSHCATNESVESITAFQCPTCRHVITLSQRGL
target	lacZ reporter activity
UBE2J1 UBC core domain (UniProt Q9Y385)	0
UBE2D1 UBC core domain (UniProt P51668)	0
UBE2I UBC core domain (UniProt P63279)	0
UBE2J2 UBC core domain (UniProt Q8N2K1)	4720
UBE2C UBC core domain (UniProt O00762)	0
UBE2G1 UBC core domain (UniProt P62253)	0
UBE2B UBC core domain (UniProt P63146)	0
UBE2O UBC core domain (UniProt Q9C0C9)	0

Other studies, line by line
Target: SMN1, full length (human, UniProt Q16637, residues 1-294)
UniProt Q16637, sequence (whole entry, looked up): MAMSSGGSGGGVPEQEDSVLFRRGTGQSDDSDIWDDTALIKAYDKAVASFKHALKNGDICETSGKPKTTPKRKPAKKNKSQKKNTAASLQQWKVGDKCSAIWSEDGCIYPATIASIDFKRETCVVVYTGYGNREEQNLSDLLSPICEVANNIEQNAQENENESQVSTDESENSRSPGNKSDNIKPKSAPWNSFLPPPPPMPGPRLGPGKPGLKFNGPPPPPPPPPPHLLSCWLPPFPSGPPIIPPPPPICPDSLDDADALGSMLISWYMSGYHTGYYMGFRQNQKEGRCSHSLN
Technique: nitrocellulose filter binding
Molecule type: RNA
Sample: in vitro
Tested at: 100 nM
Setting: whole RNA, constant flanks, single concentration, ends assumed
Relative to: round 9 selected pool
Reading: higher = stronger binding
Oligonucleotide	relative RNA binding
GGGCUCACCACGCACCGUGGUCGAUUUUUGCGUUCGUGUGCCUCACCACGGCAAGCU	53 % of pool
GGGCUCACCACGCACGACACAUUGCCCUGGGGAAUUGGUGCCUCACCACGGCAAGCU	20 % of pool
